Assay results collected from several papers.
Parts stem from different laboratories: compare values within a part only. Positions count from the first letter of the parent shown.

Study 1 — method: DHFR PCA, deep sequencing; medium: yeast; added: (+)-ABA 0.39 µM; reference: wild-type fitted maximum; direction: higher = stronger binding
Target: ABI1, truncated, D143A, DHFR fusion (Arabidopsis thaliana)
Notes: methotrexate growth selection, single substitutions
Starting sequence: PYL1, truncated, DHFR fusion (Arabidopsis thaliana); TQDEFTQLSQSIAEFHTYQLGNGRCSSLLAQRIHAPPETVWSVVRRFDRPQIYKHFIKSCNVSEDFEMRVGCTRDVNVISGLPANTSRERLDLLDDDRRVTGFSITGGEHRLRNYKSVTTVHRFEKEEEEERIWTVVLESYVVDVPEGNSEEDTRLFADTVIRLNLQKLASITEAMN
`S171K` — result for “relative binding score”: 57%.
For `Q2I`, “relative binding score” read 70.4%.
Under “relative binding score”, `D144F` is recorded as -37.5%.
For `R123Q`, “relative binding score” read 63.6%.
For `F103A`, “relative binding score” read -11.3%.

Study 2 — method: RNA Bind-n-Seq; molecule type: RNA; medium: in vitro; tested at: 365 nM; reference: no-protein control; direction: higher = stronger binding
Target: RNA binding protein fox-1 homolog 2, RRM domain, GST-SBP tag (RBFOX2, Homo sapiens, UniProt O43251-10, residues 100-194)
Notes: natural RNA segment, single round, ends assumed
All sequences stand within: GGGAGUUCUACAGUCCGACGAUC … UGGAAUUCUCGGGUGCCAA
Construct (chain): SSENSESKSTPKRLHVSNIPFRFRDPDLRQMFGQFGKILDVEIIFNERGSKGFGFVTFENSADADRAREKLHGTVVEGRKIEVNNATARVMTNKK
`UUAAACUGGUAUCUUUUCUUAGUGGUACCCAUUCAAUGUAAGCUGGUCCAUGGGAAUGGACAUGAAGAGGAUUUCACAGUAUGUAGAGCAGAAGGCACGUGAAUGUGUUU`: “RBNS enrichment (R)” 1.17.
`AGUCACUUCUGGCGCAUUUUAAUAAUUUAAAGAUUUUUAGUGCAAUGGCACGGUAACCUCCAAACCUGAAUUAGACAGAGACUCACUCAGGAAGUGACAGGCCCAUCAUA`: “RBNS enrichment (R)” 0.409.
Under “RBNS enrichment (R)”, `AAGUCUUUGUAGCCAAAUGUGACUAGUGGCUACCAUAUUAGACAGUGCAGAUCUAUACUCAUUCCUUCAAAUACAUUACUCUGUUAAUCUCAAAGUGUGGCCAACUCCCA` is recorded as 0.626.
`UAUGUAUGUGAGCACGUUGGGGUGCGCAUAAGCUAUCACCAUCUUCUUCUCUUCUAUCAUCCAAAUCAAAUGUAAGAAGUCCCUCACAUCCGAUUAGCCCAACUCUGUCU` — result for “RBNS enrichment (R)”: 0.242.
`GGGAGAACCUUAGACACUUCACCAAAUUCUGCAAUGACAGCUGGGGUAUUUUAAAGUUUAUGAUGAAGUAUUCUUUUUAUAUUCUUAAAUAUAAACUUGGAAAGGCAUUU`: “RBNS enrichment (R)” 0.471.

Study 3 — method: RNA Bind-n-Seq; molecule type: RNA; medium: in vitro; tested at: 200 nM; notes: whole 134-nt RNA, ends assumed; added: 150 mM LiCl; reference: input library; direction: higher = stronger binding; all molecules: 7-deaza-guanosine replaces G
Target: Fragile X messenger ribonucleoprotein 1, C-terminal low-complexity region (Fmr1, Mus musculus, UniProt P35922)
All sequences stand within: GGGAGUUCUACAGUCCGACGAUC … UGGAAUUCUCGGGUGUCAAGG
With `CAAGUCCUGUGCUACACAUCGUAUGUACCGAAUCGGGGAAGGGGAAGGGGAAGGGAAAGUAUUAUGUUACGCCGUUCGGAUCUGCACUUC` the log2 enrichment was -0.0432.
`CCUCAAGUCCUGUGCUACACAUCGUAUGUACCGAAUCGGCCGGGCCGGGCCGGAAAGUAUUAUGUUACGCCGUUCGGAUCUGCACUUCCA` has a log2 enrichment of -0.144.
For `GUCCUGUGCUACACAUCGUAUGUACCGAAUCAAAUUUUUAAAUUUUUUUAAACCCAAAAAAGUAUUAUGUUACGCCGUUCGGAUCUGCAC`, the log2 enrichment was -0.981.
`UGGGAGGUGGAUUUUGAUUAUUUUUUUAGCUCAUUUCCAGGGGUGGGAAUUUUUUUUUAAUAUGUGUCAUGAAUAAAGUUGUUUUUGAAA` has a log2 enrichment of -0.647.
For `CCUGUGCUACACAUCGUAUGUACCGAAUCGGGAAAAAAGGGGAAAAAAGGGAAAAAAGGGGAAAGUAUUAUGUUACGCCGUUCGGAUCUG`, the log2 enrichment was 0.508.

Other studies, line by line
The fold induction of `PhoQ, residues 284 288 289 292 302 303 SLSVQF` is reported as 6.5 (PhoP, residues 12 14 15 18 19 NQGLL (Escherichia coli, UniProt P23836); Sort-seq, item: YFP reporter; E. coli; PhoQ-PhoP variant library, added: 10 µM Mg2+; reference: high Mg2+ state, higher = stronger signaling).

Repeated from above (study 3):
`CCUCAAGUCCUGUGCUACACAUCGUAUGUACCGAAUCGGCCGGGCCGGGCCGGAAAGUAUUAUGUUACGCCGUUCGGAUCUGCACUUCCA` has a log2 enrichment of -0.144.
For `GUCCUGUGCUACACAUCGUAUGUACCGAAUCAAAUUUUUAAAUUUUUUUAAACCCAAAAAAGUAUUAUGUUACGCCGUUCGGAUCUGCAC`, the log2 enrichment was -0.981.
